Experimental data from different studies.
Numbered parts are unrelated; each lists some results of a single study.

Sample 1 — method: protein-binding microarray; molecule type: double-stranded DNA, one strand shown; matrix: in vitro; concentration: 250 nM; notes: 60-bp whole probe; added: salmon DNA 0.4 mg/ml; reference: random background probes; reading: higher = stronger binding; shared flanks, not repeated: GCCTAGCAC … GTCTTGATTCGCTTGACGCTGCTG
Target: Interferon regulatory factor 5, full length, phosphomimetic (IRF5, Homo sapiens, UniProt Q13568-2, residues 1-514, K96S/S451D/S453D/S456D/S462D)
| Sequence | log fluorescence |
| --- | --- |
| GACGGTATCGGGGTTCGGGACGTGCTA | 1.18 z-score |
| TTAGGACTGGGGTATCCGTTAGTGCTA | -0.333 z-score |
| GACGGACTGGGGACTGGGGTCGTGCTA | -0.396 z-score |
| GAAGATTTCGATTACAAAAAGTGCTAG | 6.17 z-score |
| GACGATATCGGGTATCGAGACGTGCTA | 2.7 z-score |
| TTAGATTTAAGTATCGATTAGTGCTAG | 7.34 z-score |
| GCTTTTTCCCCCCTCACGCAGTGCTAG | 0.577 z-score |
| TTAGGTCTCGGTATCGGTGAGTGCTAG | 2.95 z-score |

Sample 2 — method: protein binding microarray; molecule type: double-stranded DNA, one strand shown; matrix: in vitro; concentration: not given; reference: not given; reading: higher = stronger binding
Target: Histone acetyltransferase KAT6A, both winged helices, GST fusion (KAT6A, Homo sapiens, UniProt Q92794, residues 1-181)
Notes: 8-mer, flanks averaged, mean of 2 arrays, mostly near background
Target sequence (chain): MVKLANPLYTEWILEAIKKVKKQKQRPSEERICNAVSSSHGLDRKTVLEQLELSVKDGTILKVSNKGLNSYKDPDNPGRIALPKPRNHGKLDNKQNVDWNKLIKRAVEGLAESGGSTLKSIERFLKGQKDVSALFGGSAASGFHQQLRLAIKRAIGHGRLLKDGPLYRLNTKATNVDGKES
| Sequence | E-score |
| --- | --- |
| AATGAAAT | -0.0827 |
| GAGAACGC | 0.0577 |
| CCCCAACA | -0.27 |
| CCTGAATA | -0.0383 |
| CGACTGCG | 0.191 |
| CCATCTCC | -0.0927 |
| AGACGACG | 0.0272 |

Sample 3 — method: RNA Bind-n-Seq; molecule type: RNA; matrix: in vitro; concentration: 365 nM; reference: no-protein control; reading: higher = stronger binding
Target: RNA binding protein fox-1 homolog 2, RRM domain, GST-SBP tag (RBFOX2, Homo sapiens, UniProt O43251-10, residues 100-194)
Notes: natural RNA segment, single round, ends assumed
Shared flanks, not repeated: GGGAGUUCUACAGUCCGACGAUC … UGGAAUUCUCGGGUGCCAA
Residues (chain): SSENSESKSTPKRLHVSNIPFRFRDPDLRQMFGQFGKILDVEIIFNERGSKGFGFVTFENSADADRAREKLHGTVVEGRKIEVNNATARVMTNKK
| Sequence | RBNS enrichment (R) |
| --- | --- |
| AAACAAUGCUCACCUCACCAAAAUUAUAUUAUUUGCAGUCAUUUGUGAUAACACAAAUUUUAUCGCAAUGGUUAUUAUUUAAUUUGUGGCCACACACUGUGGUUAUCUUU | 0.342 |
| AGGAACACUUGCUCUUUGAGCCCCGUGACCGACAGUGACCAGGGAUUGGCAUUCUUGGAUUGGCAUGCUUUCCAUUGUUACUUUGUCUAUUUUGGUAAGAAAAACAUCAA | 1.47 |
| AGACAUUAAUCUGCAACAGGUCUUGUUCAUACUCAUAAAGUGUACCGUAUUAAGAAAUCAGAACAGUGCCUUAAGACAGACUGAGACGUCGUGAAAAAUGUGUUCACACU | 0.326 |
| CAUCCUACUCUCAAGGAUGAAGUCUCCAGCCUGUGGAGCCAGCCUAGCUCCUAACUGUCAGGCUGACGGACACCUCCCAGGUCUUGCACCCUCAUGCCAACUCUGCCCCA | 0.595 |
| AGCUCAGUACAAAUUAAUUUAAGUAAAAAACGUUUUAGAAUUUCAAAUAUCCUAAAAUAGGAAAUACUUGAACGUUUUAAUGAGAAAUUUCUAUGGUUGAAAUUCAUAGC | 0.533 |
| GUUUUGUAAUGCCCGCCCCUUGCCUCGAUAUUGCCAGUUUCUUGUGCAAUAAACAAUCAGCAGCUGUGGGUGGUGUUGUUGUGGAUGUUUACAAAGCCACAGUCCUCCAG | 1.25 |

Other studies, line by line
| Substance | target | assay | system | conditions | how to read | measurement | result |
| --- | --- | --- | --- | --- | --- | --- | --- |
| PhoQ, residues 284 288 289 292 302 303 STVVAA | PhoP, residues 12 14 15 18 19 SEGLL (Escherichia coli, UniProt P23836) | Sort-seq, refers to: YFP reporter | E. coli | PhoQ-PhoP variant library, added: 10 µM Mg2+ | reference: high Mg2+ state, higher = stronger signaling | fold induction | 10.6 |
